Measurements of several laboratories.
Compare with care: the assays were run in different laboratories. Values joined by “and” are separate records of one study, mostly repeats; a detail may differ. Numbers after ± are the reported error.

Cc1cn(C2CCC(OC(C(=O)O)P(=O)(O)O)C2)c(=O)[nH]c1=O (racemic)
fold resistance (HIV-1 reverse transcriptase K70E; enzyme activity, inhibitor; with: poly(rA)·oligo(dT), [3H]dTTP; relative to: mutant over wild type): 0.8 fold

CC(C)n1ccn2cc(C(=O)NCc3ccc(F)cc3F)c(=O)c(O)c2c1=O
EC50 (HIV-1; viral replication, single-round vector infection; IN L74M/G140C/Q148R): 158 ± 22.1 nM

C[C@@H]1Cc2ccc(C(=O)N[C@@H](Cc3ccccc3)C(=O)O)c(O)c2C(=O)O1
IC50 (HK-2; cell growth or viability): 37900 nM

Cc1cc(/C=C/C#N)cc(C)c1-n1cnc2cnc(Nc3ccc(C#N)cc3)nc21
EC50 (HIV-1; viral replication, single-round infection; RT mutant K103N/Y181C): 41.4 ± 3.6 nM

CN1CCn2cc(C(=O)NCc3ccc(F)cc3F)c(=O)c(O)c2C1=O
EC50 (human immunodeficiency virus 1; single-round vector infection; integrase R263K): 12.8 ± 2.2 nM

CC[C@H](C)[C@H](NC(=O)[C@H](CCCCN)NC(=O)[C@H](Cc1ccc(O)cc1)NC(=O)[C@H](CCC(N)=O)NC(=O)[C@H](Cc1c[nH]cn1)NC(=O)[C@@H](NC(=O)[C@H](Cc1ccccc1)NC(=O)[C@H](Cc1c[nH]cn1)NC(=O)[C@@H](NC(=O)[C@@H](NC(=O)CNC(=O)[C@H](CCCNC(=N)N)NC(=O)[C@H](Cc1c[nH]c2ccccc12)NC(=O)[C@H](CC(C)C)NC(=O)[C@H](CO)NC(=O)[C@H](CCC(=O)O)NC(=O)[C@H](CC(C)C)NC(=O)[C@H](CCC(=O)O)NC(=O)[C@H](CC(N)=O)NC(=O)[C@H](CC(C)C)NC(=O)[C@H](CC(=O)O)NC(=O)[C@H](CO)NC(=O)[C@H](CCC(=O)O)NC(=O)[C@@H](NC(=O)[C@H](CC(C)C)NC(=O)[C@H](CCC(N)=O)NC(=O)[C@H](CCC(=O)O)NC(=O)[C@H](CCC(=O)O)NC(=O)[C@H](CC(C)C)NC(=O)[C@@H]1CCCN1C(=O)[C@@H](N)Cc1ccccc1)[C@@H](C)O)[C@@H](C)O)[C@@H](C)O)C(C)C)C(=O)N[C@@H](CCSC)C(=O)N1CCC[C@H]1C(=O)N[C@@H](Cc1ccccc1)C(=O)N[C@@H](CCCNC(=N)N)C(=O)N[C@@H](CCCCN)C(=O)N[C@@H](CC(C)C)C(=O)N[C@H](C(=O)N[C@@H](Cc1ccccc1)C(=O)N[C@@H](CCCCN)C(=O)N[C@@H](CCCNC(=N)N)C(=O)N[C@@H](CCCNC(=N)N)C(=O)N[C@@H](CCCCN)C(=O)N[C@@H](CC(N)=O)C(N)=O)C(C)C
MIC (Pseudomonas aeruginosa; broth microdilution; ATCC 27853): > 50 µM

CCCCCCCCCCCCCCCC(=O)N[C@@H](CCC(=O)NCCOCCOCCC(=O)NCCOCCOCCC(=O)NCCCC[C@H](NC(=O)[C@H](CC(=O)O)NC(=O)[C@H](CC(C)C)NC(=O)[C@H](Cc1ccc(O)cc1)NC(=O)[C@H](CCCCN)NC(=O)[C@H](CO)NC(=O)[C@H](Cc1ccc(O)cc1)NC(=O)[C@H](CC(=O)O)NC(=O)[C@H](CO)NC(=O)[C@@H](NC(=O)[C@H](Cc1ccccc1)NC(=O)[C@@H](NC(=O)CNC(=O)[C@H](CCC(N)=O)NC(=O)[C@@H](CO)NC(=O)[C@@H](N)Cc1c[nH]cn1)[C@@H](C)O)[C@@H](C)O)C(=O)N[C@@H](CCCNC(=N)N)C(=O)N[C@@H](CCCNC(=N)N)C(=O)N[C@@H](C)C(=O)N[C@@H](CCC(N)=O)C(=O)N[C@@H](CC(=O)O)C(=O)N[C@@H](Cc1ccccc1)C(=O)N[C@H](C(=O)N[C@@H](CCC(N)=O)C(=O)N[C@@H](Cc1c[nH]c2ccccc12)C(=O)N[C@@H](CC(C)C)C(=O)N[C@@H](CC(C)C)C(=O)N[C@@H](CC(N)=O)C(=O)N[C@H](C(=O)NCC(=O)NCC(=O)N1CCC[C@H]1C(=O)N[C@@H](CO)C(=O)N[C@@H](CO)C(=O)NCC(=O)N[C@@H](C)C(=O)N1CCC[C@H]1C(=O)N1CCC[C@H]1C(=O)N1CCC[C@H]1C(=O)N[C@@H](CO)C(N)=O)[C@@H](C)O)C(C)C)C(=O)O
α-SMA staining (Sprague-Dawley rat ANIT model, liver; dose not given): decreased

COCCCn1ccn2cc(C(=O)NCc3ccc(F)cc3F)c(=O)c(O)c2c1=O
EC50 (human immunodeficiency virus 1; single-round vector infection; integrase N155H): 8.2 ± 1.3 nM

Nc1ccn(C2CCC(OC(C(=O)O)P(=O)(O)O)C2)c(=O)n1 (racemic)
fold resistance (HIV-1 reverse transcriptase E138K; enzyme activity, inhibitor; with: poly(rI)·oligo(dC), [3H]dCTP; relative to: mutant over wild type): 1.5 fold

CCCCCCCCCCCCCCCCCC(=O)N[C@@H](CCC(=O)NCCCC[C@H](NC(=O)[C@H](CCC(N)=O)NC(=O)[C@H](CCCCN)NC(=O)[C@H](CO)NC(=O)[C@H](CC(C)C)NC(=O)[C@H](CC(=O)O)NC(=O)[C@H](CO)NC(=O)[C@@H](NC(=O)[C@H](Cc1ccccc1)NC(=O)[C@@H](NC(=O)CNC(=O)[C@H](CCC(N)=O)NC(=O)[C@@H](CO)NC(=O)[C@@H](N)Cc1c[nH]cn1)[C@@H](C)O)[C@@H](C)O)C(=O)N[C@@H](CC(=O)O)C(=O)N[C@@H](CCC(=O)O)C(=O)N[C@@H](CCC(N)=O)C(=O)N[C@@H](CC(C)C)C(=O)N[C@@H](C)C(=O)N[C@@H](CCCCN)C(=O)N[C@@H](CC(=O)O)C(=O)N[C@@H](Cc1ccccc1)C(=O)N[C@H](C(=O)N[C@@H](CCC(=O)O)C(=O)N[C@@H](Cc1c[nH]c2ccccc12)C(=O)N[C@@H](CC(C)C)C(=O)N[C@@H](CCCCN)C(=O)N[C@@H](C)C(=O)NCC(=O)NCC(=O)N1CCC[C@H]1C(=O)N[C@@H](CO)C(=O)N[C@@H](CO)C(=O)NCC(=O)N[C@@H](C)C(=O)N1CCC[C@H]1C(=O)N1CCC[C@H]1C(=O)N1CCC[C@H]1C(=O)N[C@@H](CO)C(N)=O)[C@@H](C)CC)C(=O)O
HbA1c (cynomolgus monkey, obese diabetic; dose not given, day 43, chronic multiple dosing): 6.1 ± 0.4%

O=C(NCc1ccc(F)cc1F)c1cn2ccn(CCCCO)c(=O)c2c(O)c1=O
EC50 (human immunodeficiency virus 1; single-round vector infection; integrase N155H): 45.5 ± 8.3 nM

Cc1ccc(NS(=O)(=O)c2c(C(=O)N3CCCCCC3)c(C)n(C)c2C)c(Cl)c1
relative infection (Monkeypox virus; Vero C1008, wild type; 0.01 µM, 72 h; relative to: untreated): 98% and 100%

CC[C@H](C)[C@H](NC(=O)[C@H](CCCCN)NC(=O)[C@H](CCCCN)NC(=O)[C@H](CC(C)C)NC(=O)[C@H](Cc1c[nH]c2ccccc12)NC(=O)CN)C(=O)NCC(=O)N[C@@H](CCCCN)C(=O)N[C@@H](CCCCN)C(=O)N[C@H](C(=O)N[C@@H](CCC(=O)O)C(=O)N[C@@H](CCCNC(=N)N)C(=O)N[C@H](C(=O)NCC(=O)N[C@@H](CCC(N)=O)C(=O)N[C@@H](Cc1c[nH]cn1)C(=O)N[C@H](C(=O)N[C@@H](CCCNC(=N)N)C(=O)N[C@@H](CC(=O)O)C(=O)N[C@@H](C)C(=O)N[C@H](C(=O)N[C@H](C(=O)N[C@@H](CCC(N)=O)C(=O)N[C@H](C(=O)N[C@H](C(=O)NCC(=O)N[C@H](C(=O)N[C@@H](C)C(=O)N[C@@H](CCC(N)=O)C(=O)N[C@@H](CCC(N)=O)C(=O)N[C@@H](C)C(=O)N[C@@H](C)C(=O)N[C@@H](CC(N)=O)C(=O)N[C@H](C(=O)N[C@@H](C)C(=O)N[C@@H](C)C(=O)N[C@H](C(=O)N[C@@H](CC(C)C)C(=O)N[C@@H](CCCCN)C(N)=O)[C@@H](C)O)C(C)C)C(C)C)[C@@H](C)CC)[C@@H](C)O)[C@@H](C)CC)[C@@H](C)O)[C@@H](C)O)C(C)C)[C@@H](C)CC
MIC (Escherichia coli; broth microdilution; RKI 6 A-6, CAMHB with 10% mouse serum; 150 mM NaCl): 2 µg/mL

CC(C)CC(C)n1ccn2cc(C(=O)NCc3ccc(F)cc3F)c(=O)c(O)c2c1=O (stereo not drawn)
EC50 (human immunodeficiency virus 1; single-round vector infection; integrase G140S/Q148H): 442.9 ± 2.7 nM

Cc1cc(/C=C/C#N)cc(C)c1Nc1nc(Nc2ccc(C#N)cc2)ncc1N
EC50 (HIV-1; viral replication, single-round infection; RT mutant V106A): 0.3 ± 0.03 nM

Repeated from above:
CCCCCCCCCCCCCCCCCC(=O)N[C@@H](CCC(=O)NCCCC[C@H](NC(=O)[C@H](CCC(N)=O)NC(=O)[C@H](CCCCN)NC(=O)[C@H](CO)NC(=O)[C@H](CC(C)C)NC(=O)[C@H](CC(=O)O)NC(=O)[C@H](CO)NC(=O)[C@@H](NC(=O)[C@H](Cc1ccccc1)NC(=O)[C@@H](NC(=O)CNC(=O)[C@H](CCC(N)=O)NC(=O)[C@@H](CO)NC(=O)[C@@H](N)Cc1c[nH]cn1)[C@@H](C)O)[C@@H](C)O)C(=O)N[C@@H](CC(=O)O)C(=O)N[C@@H](CCC(=O)O)C(=O)N[C@@H](CCC(N)=O)C(=O)N[C@@H](CC(C)C)C(=O)N[C@@H](C)C(=O)N[C@@H](CCCCN)C(=O)N[C@@H](CC(=O)O)C(=O)N[C@@H](Cc1ccccc1)C(=O)N[C@H](C(=O)N[C@@H](CCC(=O)O)C(=O)N[C@@H](Cc1c[nH]c2ccccc12)C(=O)N[C@@H](CC(C)C)C(=O)N[C@@H](CCCCN)C(=O)N[C@@H](C)C(=O)NCC(=O)NCC(=O)N1CCC[C@H]1C(=O)N[C@@H](CO)C(=O)N[C@@H](CO)C(=O)NCC(=O)N[C@@H](C)C(=O)N1CCC[C@H]1C(=O)N1CCC[C@H]1C(=O)N1CCC[C@H]1C(=O)N[C@@H](CO)C(N)=O)[C@@H](C)CC)C(=O)O
HbA1c (cynomolgus monkey, obese diabetic; dose not given, day 43, chronic multiple dosing): 6.1 ± 0.4%
